Assay results collected from several papers.
Numbered parts are unrelated; each lists some results of a single study. “And” joins repeats or separate records; there may be more than shown.
Chain of UniProt Q06609 (whole entry, looked up): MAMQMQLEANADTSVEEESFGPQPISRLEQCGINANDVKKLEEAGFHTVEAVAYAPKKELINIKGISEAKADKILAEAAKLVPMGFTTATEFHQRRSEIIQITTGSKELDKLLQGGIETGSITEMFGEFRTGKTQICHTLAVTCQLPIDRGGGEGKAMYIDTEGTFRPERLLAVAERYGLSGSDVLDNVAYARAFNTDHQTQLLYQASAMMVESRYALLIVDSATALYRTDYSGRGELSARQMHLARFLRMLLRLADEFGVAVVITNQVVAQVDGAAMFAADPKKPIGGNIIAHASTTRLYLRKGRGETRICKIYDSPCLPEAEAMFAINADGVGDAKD
Chain of UniProt Q9NZC9 (whole entry, looked up): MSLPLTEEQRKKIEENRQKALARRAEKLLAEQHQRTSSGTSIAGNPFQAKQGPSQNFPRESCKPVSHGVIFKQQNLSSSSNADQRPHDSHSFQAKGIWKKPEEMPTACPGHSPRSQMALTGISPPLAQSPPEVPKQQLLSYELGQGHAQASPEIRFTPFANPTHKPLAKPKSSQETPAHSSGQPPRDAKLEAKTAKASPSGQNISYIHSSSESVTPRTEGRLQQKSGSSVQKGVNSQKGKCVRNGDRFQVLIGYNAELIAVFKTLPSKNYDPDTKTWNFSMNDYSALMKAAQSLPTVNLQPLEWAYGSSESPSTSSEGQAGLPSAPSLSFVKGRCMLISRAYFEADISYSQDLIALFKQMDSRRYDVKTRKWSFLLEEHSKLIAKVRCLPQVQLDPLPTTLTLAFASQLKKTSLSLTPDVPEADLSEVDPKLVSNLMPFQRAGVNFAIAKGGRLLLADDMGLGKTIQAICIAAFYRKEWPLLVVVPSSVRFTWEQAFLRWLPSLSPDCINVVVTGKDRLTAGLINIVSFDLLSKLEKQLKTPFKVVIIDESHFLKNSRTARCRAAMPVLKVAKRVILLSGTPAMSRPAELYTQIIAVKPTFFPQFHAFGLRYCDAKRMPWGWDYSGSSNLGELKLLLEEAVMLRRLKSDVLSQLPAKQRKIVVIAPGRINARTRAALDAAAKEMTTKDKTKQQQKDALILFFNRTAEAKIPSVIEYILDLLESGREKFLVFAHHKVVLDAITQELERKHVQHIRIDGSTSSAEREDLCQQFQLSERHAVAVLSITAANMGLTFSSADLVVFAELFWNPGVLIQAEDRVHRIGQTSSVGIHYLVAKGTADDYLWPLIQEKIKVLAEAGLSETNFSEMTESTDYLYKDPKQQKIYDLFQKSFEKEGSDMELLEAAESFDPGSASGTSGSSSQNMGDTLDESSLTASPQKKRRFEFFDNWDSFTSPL
Chain of UniProt P49760 (whole entry, looked up): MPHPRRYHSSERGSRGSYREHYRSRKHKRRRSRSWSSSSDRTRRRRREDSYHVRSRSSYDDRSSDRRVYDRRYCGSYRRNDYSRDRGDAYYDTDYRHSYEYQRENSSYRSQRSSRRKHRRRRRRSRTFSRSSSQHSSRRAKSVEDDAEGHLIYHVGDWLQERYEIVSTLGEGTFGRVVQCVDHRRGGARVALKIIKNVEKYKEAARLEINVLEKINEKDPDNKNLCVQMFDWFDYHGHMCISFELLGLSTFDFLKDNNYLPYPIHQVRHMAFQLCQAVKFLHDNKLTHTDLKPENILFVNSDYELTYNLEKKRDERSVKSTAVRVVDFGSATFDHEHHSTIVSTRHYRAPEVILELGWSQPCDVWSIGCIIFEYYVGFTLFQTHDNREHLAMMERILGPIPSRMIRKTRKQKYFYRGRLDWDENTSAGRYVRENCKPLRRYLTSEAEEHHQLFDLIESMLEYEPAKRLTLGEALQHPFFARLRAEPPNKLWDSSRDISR
Chain of UniProt P25098 (whole entry, looked up): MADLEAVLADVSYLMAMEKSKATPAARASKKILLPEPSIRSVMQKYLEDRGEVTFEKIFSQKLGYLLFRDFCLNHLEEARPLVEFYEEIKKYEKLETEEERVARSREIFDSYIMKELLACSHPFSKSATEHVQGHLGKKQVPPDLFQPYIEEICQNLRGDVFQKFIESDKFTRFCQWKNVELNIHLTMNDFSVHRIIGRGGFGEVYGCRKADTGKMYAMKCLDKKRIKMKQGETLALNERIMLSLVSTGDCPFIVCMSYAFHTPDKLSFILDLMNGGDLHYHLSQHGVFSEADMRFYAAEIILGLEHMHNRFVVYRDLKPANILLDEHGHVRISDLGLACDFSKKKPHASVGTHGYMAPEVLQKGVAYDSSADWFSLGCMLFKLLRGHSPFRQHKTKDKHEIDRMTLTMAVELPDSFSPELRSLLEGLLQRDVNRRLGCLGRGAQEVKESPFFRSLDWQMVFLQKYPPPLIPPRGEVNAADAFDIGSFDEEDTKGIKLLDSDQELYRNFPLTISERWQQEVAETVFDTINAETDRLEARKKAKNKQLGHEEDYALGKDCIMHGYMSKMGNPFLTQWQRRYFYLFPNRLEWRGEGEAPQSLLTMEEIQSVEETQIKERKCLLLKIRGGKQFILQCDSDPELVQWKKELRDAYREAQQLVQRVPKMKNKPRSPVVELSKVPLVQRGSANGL

Sample 1 — effect on: enzyme activity; mode: inhibitor; concentration: 0.5 µM; baseline: control; endpoint: remaining activity
Target: Testis-specific serine/threonine-protein kinase 2 (TSSK2, Homo sapiens, UniProt Q96PF2)
Residues (Q96PF2 1-358): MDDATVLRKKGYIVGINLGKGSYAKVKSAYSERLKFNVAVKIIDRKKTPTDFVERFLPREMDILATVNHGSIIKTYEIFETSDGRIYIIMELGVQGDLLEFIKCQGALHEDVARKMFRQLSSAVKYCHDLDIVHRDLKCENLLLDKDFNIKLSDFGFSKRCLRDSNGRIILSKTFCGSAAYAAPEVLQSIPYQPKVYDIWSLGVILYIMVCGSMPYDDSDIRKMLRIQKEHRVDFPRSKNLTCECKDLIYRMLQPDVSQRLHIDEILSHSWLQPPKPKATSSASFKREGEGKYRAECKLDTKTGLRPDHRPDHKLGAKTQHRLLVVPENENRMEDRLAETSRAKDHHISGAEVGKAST
Compound = O=C1NC(=O)C(c2cn(CCCn3ccnc3)c3ccccc23)=C1Nc1ccccc1; value = 97.9%
Compound = O=C(CCCc1ccc(-c2ccccc2F)cc1)Nc1ccc(O)cc1; value = 115%
Compound = Nc1ncnc2n[nH]c(Nc3ccc(F)cc3)c12; value = 90.8%
Compound = Nc1ccc2ncnc(NCCc3ccc(Oc4ccccc4)cc3)c2c1; value = 94.5%
Compound = O=C1NC(=O)C(c2cn(CCCO)c3ncccc23)=C1c1cnccn1; value = 119%
Compound = Oc1ccc(-c2nc(-c3ccncc3)c(-c3ccc(F)cc3)[nH]2)cc1; value = 93.1%
Compound = COc1ccc(CNC(=O)Nc2ncc([N+](=O)[O-])s2)cc1; value = 105%
Compound = Cc1ccc(NC(=O)c2ccc(CN3CCN(C)CC3)cc2)cc1Nc1nc(-c2cccnc2)cs1; value = 102%
Compound = COc1ccc(C(=O)Nc2sc3c(c2C(N)=O)CCCC3)cc1OC; value = 94.6%
Compound = COc1ccc(OC)c2c(=S)c3ccccc3[nH]c12; value = 108%
Compound = Cc1ccc(Nc2nccc(N(C)c3ccc4c(C)n(C)nc4c3)n2)cc1S(N)(=O)=O; value = 102%
Compound = O=c1c2ccccc2[nH]c(=S)n1CCN1CCC(=C(c2ccc(F)cc2)c2ccc(F)cc2)CC1; value = 101%
Compound = Nc1[nH]nc2nc3ccccc3nc12; value = 110%
Compound = Cn1sc(=O)n(Cc2ccccc2)c1=O; value = 100%
Compound = CCOC(=O)c1c(C)[nH]c(/C=C2\C(=O)Nc3ccccc32)c1C; value = 95.9%
Compound = CC(C)[C@H](CO)Nc1nc(Nc2cc(N)cc(Cl)c2)c2ncn(C(C)C)c2n1; value = 102%
Compound = O=C(O)c1ccc2c3c1cccc3c(=O)n1c3ccccc3nc21; value = 106%
Compound = COc1cc2ncnc(Nc3ccc(F)c(Cl)c3)c2cc1OCCCN1CCOCC1; value = 91.5%
Compound = OCC(O)CCON=C1C(c2c(O)[nH]c3ccccc23)=Nc2ccccc21 (stereo not shown); value = 96.2%
Compound = COc1cc2ncnc(Nc3ccc(Oc4ccccc4)cc3)c2cc1OC; value = 103%
Compound = O=S(=O)(c1cccc2cnccc12)N1CCCNCC1; value = 80.2%

Sample 2 — concentration: 1 µM; endpoint: remaining binding
Structure (SMILES): Cc1c(NC(=O)c2cc(C(N)=O)nc3cc(F)ccc23)c(C(F)(F)F)nn1Cc1ccc(C#N)cc1
target = CDKL2 (Homo sapiens, UniProt Q92772); test = binding, competition with immobilised ligand; value = 92%
target = CAMK2B (Homo sapiens, UniProt Q13554); test = cell-free assay, competition with immobilised ligand; value = 90%
target = SIK1 (Homo sapiens, UniProt P57059); test = competition binding; value = 100%
target = DSTYK (Homo sapiens, UniProt Q6XUX3); test = cell-free assay, competition with immobilised ligand; value = 78%
target = CLK2 (Homo sapiens, UniProt P49760); test = cell-free assay, competition with immobilised ligand; value = 89%
target = PAK1 (Homo sapiens, UniProt Q13153); test = cell-free assay, competition with immobilised ligand; value = 100%
target = FLT3 (Homo sapiens, UniProt P36888, D835Y); test = cell-free assay, competition with immobilised ligand; value = 92%
target = Myosin-IIIb (MYO3B, Homo sapiens, UniProt Q8WXR4); test = binding, competition with immobilised ligand; value = 100%

Sample 3 — mode: agonist; endpoint: EC50
Target: Beta-1 adrenergic receptor (ADRB1, Homo sapiens, UniProt P08588)
Chain of UniProt P08588 (whole entry, looked up): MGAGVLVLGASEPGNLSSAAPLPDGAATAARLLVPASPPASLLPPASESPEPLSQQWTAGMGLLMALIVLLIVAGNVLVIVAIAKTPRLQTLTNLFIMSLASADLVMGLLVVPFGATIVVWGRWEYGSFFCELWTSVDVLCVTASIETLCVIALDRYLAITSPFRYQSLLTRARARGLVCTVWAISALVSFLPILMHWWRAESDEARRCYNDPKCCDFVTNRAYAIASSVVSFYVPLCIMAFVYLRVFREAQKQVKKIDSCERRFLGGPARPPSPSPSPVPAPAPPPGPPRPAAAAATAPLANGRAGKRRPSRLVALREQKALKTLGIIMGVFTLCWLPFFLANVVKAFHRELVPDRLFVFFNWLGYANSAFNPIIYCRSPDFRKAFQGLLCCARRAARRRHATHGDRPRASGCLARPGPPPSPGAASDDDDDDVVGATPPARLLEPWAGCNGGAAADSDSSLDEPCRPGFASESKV
Compound = COc1ccccc1-c1cc(-c2ccccc2)nc2c(C)noc12; value = ≥ 100 µM
Compound = c1ccc2nc(C3=NCCN3)ccc2c1; value = ≥ 100 µM
Compound = Cc1noc2c(-c3ccsc3)cc(-c3cccnc3)nc12; value = ≥ 100 µM
Compound = COc1ccc2c(CSc3nncn3-c3ccccc3)cc(=O)oc2c1; value = ≥ 100 µM
Compound = CC(C)(O)c1cc(CC2(NCc3cnc4ccccc4c3)COC2)no1; value = ≥ 100 µM
Compound = CCN1CC(C(=O)NCC2CCN(c3ccccc3OC)C2)CC1=O (stereo not shown); value = ≥ 100 µM

Sample 4 — effect on: enzyme activity; concentration: 5 µM; baseline: untreated control; endpoint: remaining activity
SMILES: O=C(Nc1cnn(-c2csc(C(=O)NC3COC3)c2)c1)Nc1ccccc1Cl
target = GRK2 (Homo sapiens, UniProt P25098); value = 96%
target = CAMK1G (Homo sapiens, UniProt Q96NX5); value = 94%
target = IRAK1 (Homo sapiens, UniProt P51617); value = 107%
target = SNRK (Homo sapiens, UniProt Q9NRH2); value = 90.6%
target = MUSK (Homo sapiens, UniProt O15146); value = 91.2%
target = GSK3A (Homo sapiens, UniProt P49840); value = 97%

Sample 5 — effect on: ATPase activity; method: ADP-Glo; baseline: DMSO; endpoint: remaining activity; CHD1: CHD1 (Homo sapiens, UniProt O14646)
Chain of UniProt O14646 (whole entry, looked up): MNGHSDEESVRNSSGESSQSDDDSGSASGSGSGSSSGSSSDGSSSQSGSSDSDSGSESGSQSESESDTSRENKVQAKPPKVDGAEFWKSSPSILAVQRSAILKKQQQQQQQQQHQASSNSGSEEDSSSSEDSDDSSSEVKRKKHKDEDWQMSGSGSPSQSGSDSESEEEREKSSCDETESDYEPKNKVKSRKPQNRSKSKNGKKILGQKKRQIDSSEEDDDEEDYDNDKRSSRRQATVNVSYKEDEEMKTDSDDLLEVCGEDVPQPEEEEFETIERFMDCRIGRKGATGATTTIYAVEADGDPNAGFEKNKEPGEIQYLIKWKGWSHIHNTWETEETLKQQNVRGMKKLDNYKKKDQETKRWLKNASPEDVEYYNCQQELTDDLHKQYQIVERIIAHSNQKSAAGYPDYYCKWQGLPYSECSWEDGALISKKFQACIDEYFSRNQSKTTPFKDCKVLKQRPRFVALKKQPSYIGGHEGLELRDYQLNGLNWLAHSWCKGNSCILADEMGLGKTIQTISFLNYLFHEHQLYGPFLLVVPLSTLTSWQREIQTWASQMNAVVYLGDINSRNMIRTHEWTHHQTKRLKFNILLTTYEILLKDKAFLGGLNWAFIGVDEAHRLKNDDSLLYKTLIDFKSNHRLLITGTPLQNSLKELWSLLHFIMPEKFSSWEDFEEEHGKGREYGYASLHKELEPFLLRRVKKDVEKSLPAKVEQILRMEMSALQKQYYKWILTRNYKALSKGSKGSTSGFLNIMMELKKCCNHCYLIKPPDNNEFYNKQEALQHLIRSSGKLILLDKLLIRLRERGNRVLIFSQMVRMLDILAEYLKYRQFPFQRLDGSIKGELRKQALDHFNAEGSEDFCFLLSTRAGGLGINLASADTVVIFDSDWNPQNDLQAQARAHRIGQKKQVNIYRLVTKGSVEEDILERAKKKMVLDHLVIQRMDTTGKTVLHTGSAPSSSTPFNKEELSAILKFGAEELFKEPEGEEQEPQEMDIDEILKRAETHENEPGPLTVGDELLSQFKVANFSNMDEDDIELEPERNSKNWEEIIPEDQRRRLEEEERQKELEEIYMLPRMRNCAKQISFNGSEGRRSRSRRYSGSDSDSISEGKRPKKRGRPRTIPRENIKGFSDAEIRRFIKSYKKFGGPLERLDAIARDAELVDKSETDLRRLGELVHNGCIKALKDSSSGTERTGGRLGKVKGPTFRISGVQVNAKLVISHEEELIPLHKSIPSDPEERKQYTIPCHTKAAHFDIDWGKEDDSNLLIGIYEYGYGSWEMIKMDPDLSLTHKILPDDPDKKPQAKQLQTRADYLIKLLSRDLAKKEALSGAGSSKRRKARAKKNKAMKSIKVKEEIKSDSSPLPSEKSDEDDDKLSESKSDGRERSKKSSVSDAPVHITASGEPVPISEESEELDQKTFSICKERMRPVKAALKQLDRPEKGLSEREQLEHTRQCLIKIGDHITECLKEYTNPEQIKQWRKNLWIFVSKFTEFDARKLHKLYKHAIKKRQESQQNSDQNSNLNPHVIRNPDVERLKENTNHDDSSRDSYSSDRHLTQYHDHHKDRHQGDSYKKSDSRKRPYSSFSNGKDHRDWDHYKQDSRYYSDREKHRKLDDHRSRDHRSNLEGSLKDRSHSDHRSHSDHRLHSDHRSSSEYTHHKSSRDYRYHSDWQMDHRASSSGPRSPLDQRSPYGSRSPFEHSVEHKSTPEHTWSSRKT
Compound: CO[C@@H]1[C@@H](OC(N)=O)[C@@H](O)[C@H](Oc2ccc3c(O)c(NC(=O)c4ccc(O)c(CC=C(C)C)c4)c(=O)oc3c2C)OC1(C)C
target = CHD1; setting = 50 µM; value = 75.1% and 91% and 74.9% and 96.1% and 87.4% and 82.7%
target = CHD1; setting = 100 µM; value = 67% and 68.6% and 70.3% and 87% and 80.5% and 88.7%
target = HSP90AA1 (Homo sapiens, UniProt P07900); setting = 25 µM; value = 106% and 117% and 95.8% and 110% and 103% and 107%
target = RAD51 (Homo sapiens, UniProt Q06609); setting = 25 µM; value = 99.4% and 101% and 97.5% and 73.8% and 98.5% and 88.6%
target = SWI/SNF-related matrix-associated actin-dependent regulator of chromatin subfamily A-like protein 1 (SMARCAL1, Homo sapiens, UniProt Q9NZC9); setting = 100 µM; value = 97.1% and 98.4% and 95.7% and 95% and 103% and 96.4%

Some of these lines once more (sample 1):
Compound = COc1ccc(OC)c2c(=S)c3ccccc3[nH]c12; value = 108%
Compound = O=C1NC(=O)C(c2cn(CCCn3ccnc3)c3ccccc23)=C1Nc1ccccc1; value = 97.9%
Compound = COc1cc2ncnc(Nc3ccc(F)c(Cl)c3)c2cc1OCCCN1CCOCC1; value = 91.5%
Compound = Cc1ccc(Nc2nccc(N(C)c3ccc4c(C)n(C)nc4c3)n2)cc1S(N)(=O)=O; value = 102%
Compound = O=C1NC(=O)C(c2cn(CCCO)c3ncccc23)=C1c1cnccn1; value = 119%
Compound = Nc1ccc2ncnc(NCCc3ccc(Oc4ccccc4)cc3)c2c1; value = 94.5%
Compound = Cc1ccc(NC(=O)c2ccc(CN3CCN(C)CC3)cc2)cc1Nc1nc(-c2cccnc2)cs1; value = 102%
